Measured values from different studies.
Every numbered part comes from another study and shows a few of its results, in no order. Positions count from the first letter of the parent shown.
Chain of UniProt Q9BY78 (whole entry, looked up): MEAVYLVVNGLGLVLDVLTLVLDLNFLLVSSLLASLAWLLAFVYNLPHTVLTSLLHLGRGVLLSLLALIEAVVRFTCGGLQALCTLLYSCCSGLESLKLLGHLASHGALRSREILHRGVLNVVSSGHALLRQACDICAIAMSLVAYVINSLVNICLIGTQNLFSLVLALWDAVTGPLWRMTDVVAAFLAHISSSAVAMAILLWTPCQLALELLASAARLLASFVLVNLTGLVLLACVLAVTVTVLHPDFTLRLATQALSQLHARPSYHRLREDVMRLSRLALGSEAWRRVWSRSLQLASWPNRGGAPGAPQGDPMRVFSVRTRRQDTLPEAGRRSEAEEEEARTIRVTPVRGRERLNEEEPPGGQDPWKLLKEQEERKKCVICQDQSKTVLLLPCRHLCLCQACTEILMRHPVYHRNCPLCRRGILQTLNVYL
Chain of UniProt O43567 (whole entry, looked up): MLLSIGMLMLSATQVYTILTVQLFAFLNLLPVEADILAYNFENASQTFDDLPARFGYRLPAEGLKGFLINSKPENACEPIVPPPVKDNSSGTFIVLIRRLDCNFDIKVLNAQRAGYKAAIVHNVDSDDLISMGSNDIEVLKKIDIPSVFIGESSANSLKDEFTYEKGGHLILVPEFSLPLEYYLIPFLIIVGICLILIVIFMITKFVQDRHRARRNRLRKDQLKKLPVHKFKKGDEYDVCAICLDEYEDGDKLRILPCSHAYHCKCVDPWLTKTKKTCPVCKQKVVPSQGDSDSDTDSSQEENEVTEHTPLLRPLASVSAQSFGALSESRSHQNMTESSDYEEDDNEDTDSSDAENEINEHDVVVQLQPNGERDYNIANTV

Study 1
Target: CCNB1, cyclin fold, Cln2 fusion (human)
Method: yeast growth competition, sequencing
Matrix: yeast
Notes: strong parent motif
Baseline: not given
Reading: higher = stronger binding
Starting sequence: viral docking peptide; TSVRRALFTGGSD; partner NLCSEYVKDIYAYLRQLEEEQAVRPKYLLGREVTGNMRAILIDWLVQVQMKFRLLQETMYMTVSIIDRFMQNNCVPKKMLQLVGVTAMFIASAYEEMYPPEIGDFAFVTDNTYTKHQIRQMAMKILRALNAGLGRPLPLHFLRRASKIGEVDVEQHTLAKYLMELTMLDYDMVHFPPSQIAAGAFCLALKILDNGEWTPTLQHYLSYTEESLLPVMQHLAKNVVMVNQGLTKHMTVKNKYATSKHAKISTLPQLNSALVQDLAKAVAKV
Under “normalised enrichment score”, `R5Y` is recorded as 0.469.
Under “normalised enrichment score”, `F8D` is recorded as -0.0663.
`R4Y` — result for “normalised enrichment score”: 0.759.
`S2G` — result for “normalised enrichment score”: 2.57.
Under “normalised enrichment score”, `V3N` is recorded as -0.1.
Under “normalised enrichment score”, `R4K` is recorded as 1.32.
For `S2V`, “normalised enrichment score” read 1.25.
For `L7C`, “normalised enrichment score” read 0.427.
`T9M`: “normalised enrichment score” 1.79.
For `G10N`, “normalised enrichment score” read 2.71.
Under “normalised enrichment score”, `G10A` is recorded as 2.18.
For `G11H`, “normalised enrichment score” read 1.9.
`G11L` — result for “normalised enrichment score”: 1.99.
`L7H` — result for “normalised enrichment score”: 0.202.
`A6V` — result for “normalised enrichment score”: 1.06.
`T9S` — result for “normalised enrichment score”: 1.69.
Under “normalised enrichment score”, `G10C` is recorded as 2.02.
Under “normalised enrichment score”, `V3I` is recorded as 1.53.

Study 2
Target: UBE2D4 UBC core domain (UniProt Q9Y2X8)
Chain of UniProt Q9Y2X8 (whole entry, looked up): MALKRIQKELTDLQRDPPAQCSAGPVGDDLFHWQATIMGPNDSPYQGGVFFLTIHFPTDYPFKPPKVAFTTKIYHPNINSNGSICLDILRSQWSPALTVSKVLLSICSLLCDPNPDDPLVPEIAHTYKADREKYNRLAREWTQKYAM
Method: yeast two-hybrid
Matrix: yeast
Notes: mostly zero background
Baseline: not given
Reading: higher = stronger interaction
`RNF167 RING domain (UniProt Q9H6Y7)`: “lacZ reporter activity” 16200.
`RNF13 RING domain (UniProt O43567)` — result for “lacZ reporter activity”: 12000.
For `RNF26 RING domain (UniProt Q9BY78)`, “lacZ reporter activity” read 0.

Study 3
Target: PABPC1L2, full length, GST fusion (mouse, UniProt A0ABA7IW68)
Method: RNAcompete
Form: RNA
Matrix: in vitro
Tested at: 20 nM
Notes: 7-mer, probes averaged, single round
Baseline: mean of 7-mers
Reading: higher = stronger binding
Target sequence (chain): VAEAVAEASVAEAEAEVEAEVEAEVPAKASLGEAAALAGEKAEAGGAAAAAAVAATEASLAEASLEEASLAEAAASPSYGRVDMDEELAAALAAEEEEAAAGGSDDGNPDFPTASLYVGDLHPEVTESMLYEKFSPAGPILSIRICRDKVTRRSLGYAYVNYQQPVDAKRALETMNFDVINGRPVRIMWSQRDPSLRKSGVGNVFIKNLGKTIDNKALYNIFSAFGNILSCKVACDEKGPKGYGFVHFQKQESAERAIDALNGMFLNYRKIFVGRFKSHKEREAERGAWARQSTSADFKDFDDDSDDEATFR
`CCAUUGA` has a 7-mer Z-score of -0.162.
The 7-mer Z-score of `CACUAUU` is reported as -0.126.
`GAUAAGU` gave a 7-mer Z-score of -0.0428.
`AUUCAGG` has a 7-mer Z-score of 0.0279.
`AAGUGGU` gave a 7-mer Z-score of 0.352.
The 7-mer Z-score of `GUCGGAC` is reported as -0.179.
The 7-mer Z-score of `CCGCUUG` is reported as -0.452.
For `GGAGAUC`, the 7-mer Z-score was 0.0261.

Study 4
Target: HLA class I histocompatibility antigen, A alpha chain, allele A*25:01 (Homo sapiens, UniProt P04439)
Effect on: peptide-MHC binding
Form: peptide
Tested at: concentration not given
For `SFWFFHPPY`, binding read “inactive”.
Under binding, `WLAGFEPSE` is recorded as “inactive”.
Under binding, `VVARLGVPY` is recorded as “inactive”.

Study 5
Target: Eukaryotic initiation factor 4A-I (EIF4A1, Homo sapiens, UniProt P60842, residues 1-406, full length assumed)
Chain of UniProt P60842 (whole entry, looked up): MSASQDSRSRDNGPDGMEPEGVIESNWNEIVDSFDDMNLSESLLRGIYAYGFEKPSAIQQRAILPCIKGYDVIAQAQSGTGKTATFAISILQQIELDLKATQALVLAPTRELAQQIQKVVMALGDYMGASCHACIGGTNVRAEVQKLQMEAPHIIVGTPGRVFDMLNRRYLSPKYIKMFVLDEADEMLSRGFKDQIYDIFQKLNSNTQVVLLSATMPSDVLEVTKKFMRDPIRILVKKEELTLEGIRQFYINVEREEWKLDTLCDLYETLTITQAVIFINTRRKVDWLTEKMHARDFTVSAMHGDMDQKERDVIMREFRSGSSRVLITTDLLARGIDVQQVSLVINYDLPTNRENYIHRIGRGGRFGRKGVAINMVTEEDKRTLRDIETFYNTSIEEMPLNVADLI
Method: RNA Bind-n-Seq
Form: RNA
Matrix: in vitro
Tested at: not given
Notes: 4-mer, random 30-nt RNA, single round
With: RocA, ADP, phosphate
Baseline: input library
Reading: higher = stronger binding
With `GCGG` the 4-mer enrichment was 0.986 fold.
With `AUCC` the 4-mer enrichment was 0.575 fold.
`GCCU` gave a 4-mer enrichment of 0.621 fold.
`GUUA` has a 4-mer enrichment of 1.09 fold.
For `GUGA`, the 4-mer enrichment was 1.7 fold.
The 4-mer enrichment of `UUUC` is reported as 0.622 fold.
With `UACA` the 4-mer enrichment was 0.738 fold.
`CAGC` has a 4-mer enrichment of 0.66 fold.

Repeated from above (study 3):
The 7-mer Z-score of `CACUAUU` is reported as -0.126.
The 7-mer Z-score of `CCGCUUG` is reported as -0.452.
`AAGUGGU` gave a 7-mer Z-score of 0.352.
The 7-mer Z-score of `GUCGGAC` is reported as -0.179.
For `GGAGAUC`, the 7-mer Z-score was 0.0261.
`CCAUUGA` has a 7-mer Z-score of -0.162.
`AUUCAGG` has a 7-mer Z-score of 0.0279.
